Results pooled from the literature.
Numbers after ± are the reported error.

O=C(N/N=C/c1ccc(C[n+]2ccccc2)cc1)c1ccc2ccc(C(=O)N/N=C/c3ccc(C[n+]4ccccc4)cc3)nc2n1  ΔTm (MYC parallel G4 DNA; FRET melting; 1 µM, DNA 0.2 µM, added: duplex DNA competitor 10 µM): 6.6 ± 0.2 °C
Cc1ccc(/C=N/N=C(\S)Nc2cccc(S(=O)(=O)N(C)C)c2)o1  EC50 (Mus musculus; gene silencing, high-content imaging; LDR reporter GFP cells; retest, mean of two runs): 12.6 µM
O=C(N/N=C/c1cc[n+](CC2CC2)c2ccccc12)c1cccc(C(=O)N/N=C/c2cc[n+](CC3CC3)c3ccccc23)c1  ΔTm (hp2 hairpin duplex DNA; FRET melting; 1 µM): 0.7 °C
C=CC(=O)Nc1cccc(Cn2ncc3cnc(Nc4cnn(CCOC)c4)nc32)c1  percent of control (AURKC human; binding, KINOMEscan; 100 nM; lower = stronger binding): 0.55%
CN1CCCNC(=O)c2cccc(c2)C(=O)NCCCN(C)CCCNc2cccc3c2C(=O)c2cccc(c2C3=O)NCCC1  log2 fold change (SAS; RNA-Seq, item: PSD4 mRNA; 1 µM, 6 h; relative to: untreated cells): 1.29
CC[n+]1cccc2cc(/C=N/NC(=O)c3cc(C(=O)N/N=C/c4ccc5c(ccc[n+]5CC)c4)ncn3)ccc21  ΔTm (MYC parallel G4 DNA; FRET melting; 1 µM, DNA 0.2 µM, added: duplex DNA competitor 10 µM): 3.3 ± 0.2 °C
C=C(NC(=O)c1csc(-c2nc3c(cc2O)-c2nc(cs2)C(=O)NC(C(C)O)C(=O)NC(=C(C)OC)c2nc(cs2)C(=O)NC2c4nc(cs4)C(=O)NC(COC(=O)c4c5c6c(cccc6n4O)COC(=O)C(OC4CC(C)(O)C(N(C)C)C(C)O4)C2OC5)c2nc-3cs2)n1)C(N)=O (stereo not shown)  lung bacterial load at ED50 (Streptococcus pneumoniae; -25, immunocompromised mice, lung infection; qd dosing): 5.34 log CFU/g
COC1CN([C@H]2CC[C@H]([C@@]3(C)Oc4c(Cl)cc(C(=O)NCc5c(SC)cc(C)[nH]c5=O)c(C)c4O3)CC2)C1  log2 fold change (RNA-seq, item: ACP5; human, whole blood; dose not given, 24 h; relative to: pretreatment baseline): 4.7
O=C(N/N=C/c1ccc2c(ccc[n+]2Cc2ccccc2)c1)c1ccc2ccc3ccc(C(=O)N/N=C/c4ccc5c(ccc[n+]5Cc5ccccc5)c4)nc3c2n1  ΔTm (hp2 hairpin duplex DNA; FRET melting; 1 µM): 1.9 ± 1.5 °C
CNS(=O)(=O)Nc1nccc(Cc2c(C)c3ccc(Oc4ncccc4F)cc3oc2=O)c1F  IC50 (DS-1; cell viability, CellTiter-Glo; 7 days): 0.107 µM
O=C(NN1C(=O)c2ccccc2NC1c1ccc([N+](=O)[O-])o1)c1ccc([N+](=O)[O-])cc1 (stereo not shown)  Emax (Mus musculus; gene silencing, high-content imaging; LDR reporter GFP cells; 30 h, retest, mean of two runs): 119%
O=C(N/N=C/c1ccc(C[n+]2ccccc2)cc1)c1cccc(C(=O)N/N=C/c2ccc(C[n+]3ccccc3)cc2)n1  ΔTm (MYC parallel G4 DNA; FRET melting; 1 µM, DNA 0.2 µM): 4.3 ± 0.3 °C
COC1OC(C)C(OS(=O)(=O)O)C(OC2OC(C)C(OS(=O)(=O)O)C(OC3OC(C)C(OS(=O)(=O)O)C(OC4OC(C)C(OS(=O)(=O)O)C(OC5OC(C)C(OS(=O)(=O)O)C(OC6OC(C)C(OS(=O)(=O)O)C(OC7OC(C)C(OS(=O)(=O)O)C(OC8OC(C)C(OS(=O)(=O)O)C(OC9OC(C)C(OS(=O)(=O)O)C(OC%10OC(C)C(OS(=O)(=O)O)C(OS(=O)(=O)O)C%10O)C9O)C8O)C7O)C6O)C5O)C4O)C3O)C2O)C1O (stereo not shown)  prothrombin time (human plasma; 128 µg/mL): 14.7 ± 0.6 s
Cc1ncsc1-c1ccc(C(C)NC(=O)C2CC(O)CN2C(=O)C(NC(=O)CCCCCCCCCCN2CCCC(Nc3ncc(Cl)c(Nc4ccccc4S(=O)(=O)C(C)C)n3)C2)C(C)(C)C)cc1 (stereo not shown)  log2 fold change (22Rv1; RNA-seq, item: NOL4L mRNA; concentration not given; relative to: DMSO): -1.27
CCCC(=O)N1CCN(c2ccc(NC(=O)c3ccc([N+](=O)[O-])o3)cc2Cl)CC1  Emax (Mus musculus; gene silencing, high-content imaging; LDR reporter GFP cells; 30 h, retest, mean of two runs): 39%
Nc1ncc(-c2cc(-c3cnn(CC(F)(F)F)c3)ncc2F)nc1C(=O)NC1CNCC(F)C1 (stereo not shown)  remaining binding (CDK2; KINOMEscan; 1 µM; relative to: DMSO control): 100%

Repeated from above:
O=C(NN1C(=O)c2ccccc2NC1c1ccc([N+](=O)[O-])o1)c1ccc([N+](=O)[O-])cc1 (stereo not shown)  Emax (Mus musculus; gene silencing, high-content imaging; LDR reporter GFP cells; 30 h, retest, mean of two runs): 119%
O=C(N/N=C/c1ccc(C[n+]2ccccc2)cc1)c1ccc2ccc(C(=O)N/N=C/c3ccc(C[n+]4ccccc4)cc3)nc2n1  ΔTm (MYC parallel G4 DNA; FRET melting; 1 µM, DNA 0.2 µM, added: duplex DNA competitor 10 µM): 6.6 ± 0.2 °C
